Experimental data collected from several papers.
Each numbered part is a random draw from the data of one study; scales do not carry over between parts. Changes are numbered by the printed parent chain.

Series 1 — target: CEBPE, bZIP domain (human); technique: DHFR protein complementation; matrix: yeast; baseline: wild-type JUN-FOS pair; reading: higher = stronger binding; quantity: binding fitness
Notes: single substitutions, most at no-binding floor
Starting sequence: JUN, bZIP domain (human); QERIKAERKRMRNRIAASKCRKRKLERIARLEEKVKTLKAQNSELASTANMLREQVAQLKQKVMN; partner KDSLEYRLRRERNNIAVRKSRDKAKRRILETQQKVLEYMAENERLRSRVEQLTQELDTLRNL
E44F: -1.42 natural log
M51V: -1.15 natural log
A46Y: -1.2 natural log
K39T: -1.3 natural log
L45D: -1.49 natural log
L31H: -1.46 natural log
L59G: -1.49 natural log
L52Y: -1.43 natural log
E32A: -1.15 natural log
A46M: -1.1 natural log
R30L: -1.04 natural log
L52E: -1.62 natural log
L52K: -1.44 natural log

Series 2 — technique: universal PBM; form: double-stranded DNA, one strand shown; matrix: in vitro; tested at: 600 nM; reading: higher = stronger binding; quantity: E-score
Target: Sal-like protein 4, full length isoform A (SALL4, Homo sapiens, UniProt Q9UJQ4, residues 1-1053)
Sequence of UniProt Q9UJQ4 (whole entry, looked up): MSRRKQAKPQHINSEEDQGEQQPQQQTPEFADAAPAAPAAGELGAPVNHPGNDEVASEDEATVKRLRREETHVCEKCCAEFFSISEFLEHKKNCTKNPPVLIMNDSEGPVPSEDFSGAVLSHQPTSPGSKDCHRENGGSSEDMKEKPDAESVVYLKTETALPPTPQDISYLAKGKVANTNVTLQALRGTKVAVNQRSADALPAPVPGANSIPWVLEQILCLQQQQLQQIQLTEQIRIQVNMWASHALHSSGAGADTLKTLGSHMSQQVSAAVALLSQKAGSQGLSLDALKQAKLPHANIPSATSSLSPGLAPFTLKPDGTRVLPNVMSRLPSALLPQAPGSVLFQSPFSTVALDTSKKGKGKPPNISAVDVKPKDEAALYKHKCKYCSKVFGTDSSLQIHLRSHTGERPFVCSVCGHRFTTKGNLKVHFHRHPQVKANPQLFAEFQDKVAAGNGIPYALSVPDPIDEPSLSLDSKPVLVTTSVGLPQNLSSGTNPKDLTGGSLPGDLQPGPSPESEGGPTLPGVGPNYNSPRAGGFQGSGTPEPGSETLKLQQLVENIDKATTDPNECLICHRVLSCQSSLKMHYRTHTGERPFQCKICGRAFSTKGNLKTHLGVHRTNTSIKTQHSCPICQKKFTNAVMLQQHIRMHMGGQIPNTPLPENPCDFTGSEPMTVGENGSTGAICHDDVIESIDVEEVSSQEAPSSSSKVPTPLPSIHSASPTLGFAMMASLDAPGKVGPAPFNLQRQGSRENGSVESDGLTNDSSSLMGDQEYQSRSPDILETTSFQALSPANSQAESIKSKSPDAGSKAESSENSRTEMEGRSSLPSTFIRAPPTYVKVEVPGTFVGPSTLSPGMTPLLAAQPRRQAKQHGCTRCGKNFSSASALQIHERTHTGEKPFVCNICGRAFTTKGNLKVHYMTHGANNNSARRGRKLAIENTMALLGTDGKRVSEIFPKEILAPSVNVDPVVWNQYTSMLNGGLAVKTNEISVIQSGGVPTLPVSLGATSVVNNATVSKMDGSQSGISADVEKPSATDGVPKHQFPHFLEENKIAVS
Notes: 8-mer, flanks averaged, mean of replicates
GGAAGCCA: -0.131
CGCCCGTA: -0.311
AACAGGGC: -0.161
CCGCTTAC: -0.205
GCGATTTA: 0.131
ACGTGATG: -0.0205
CTACCCTA: -0.0749
ACGCTAAG: -0.142
GGCATAAC: 0.161
GGATCGAC: -0.226
AGTCAATG: 0.0731
TAATCGAA: 0.178
CTACTAGA: -0.00551
ATGGAAAC: 0.159
ACTAGTGC: -0.179
ATCGGTCC: -0.25
GCGAGCAC: -0.238
CATTCCCG: -0.0285
AGTAGCAA: 0.152
AACAAAAG: 0.234

Series 3 — target: UBE2M UBC core domain (UniProt P61081); technique: yeast two-hybrid; matrix: yeast; notes: mostly zero background; baseline: not given; reading: higher = stronger interaction; quantity: lacZ reporter activity
B1: MID1 RING domain (UniProt O15344); chain METLESELTCPICLELFEDPLLLPCAHSLCFNCAHRILVSHCATNESVESITAFQCPTCRHVITLSQRGL
B2: IRF2BPL RING domain (UniProt Q9H1B7); chain SPMANSGPLCCTICHERLEDTHFVQCPSVPSHKFCFPCSRESIKAQGATGEVYCPSGEKCPLVGSNVP
B3: ARK2C RING domain (UniProt Q6ZSG1); chain EGEESDTDEKCTICLSMLEDGEDVRRLPCMHLFHQLCVDQWLAMSKKCPICRVDIETQLGAD
B4: PHF21A RING domain (UniProt Q96BD5); chain SPTSTDGDIHEDFCSVCRKSGQLLMCDTCSRVYHLDCLDPPLKTIPKGMWICPRCQDQMLKKEEAIPW
B5: CUL9 RING domain (UniProt Q8IWT3); chain AQAVPVRPDHCPVCVSPLGCDDDLPSLCCMHYCCKSCWNEYLTTRIEQNLVLNCTCPIADCPAQPTGAFIR
Residues (chain): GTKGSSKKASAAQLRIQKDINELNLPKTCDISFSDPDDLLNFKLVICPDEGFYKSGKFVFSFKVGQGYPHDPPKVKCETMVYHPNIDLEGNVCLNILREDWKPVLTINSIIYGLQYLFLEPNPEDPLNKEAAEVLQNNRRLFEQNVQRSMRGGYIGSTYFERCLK
B1 (MID1 RING domain): 0
QHHELTSLFECPVCFDYVLPPILQCQAGHLVCNQCRQKLSCCPTCRGALTPSIRNL (SIAH2 RING domain (UniProt O43255)): 0
B2 (IRF2BPL RING domain): 0
DDENSDNSNECVVCLSDLRDTLILPCRHLCLCTSCADTLRYQANNCPICRLPFRALLQIR (MGRN1 RING domain (UniProt O60291)): 0
QLRRLQEERTCKVCMDKEVSVVFIPCGHLVVCQECAPSLRKCPICRGIIKGTVRTF (BIRC2 RING domain (UniProt Q13490)): 0
KTLSRFGIQPCSICLGDAKDPVCLPCDHVHCLRCLRAWFASEQMICPYCLTALPDEFSPA (RNF213 RING domain (UniProt Q63HN8)): 0
B3 (ARK2C RING domain): 0
B4 (PHF21A RING domain): 0
B5 (CUL9 RING domain): 0

Series 4 — target: CCNF, cyclin fold, Cln2 fusion (human); technique: yeast growth competition, sequencing; matrix: yeast; notes: strong parent motif; baseline: not given; reading: higher = stronger binding; quantity: normalised enrichment score
Starting sequence: CDKN1C docking peptide (human); TSACRSLFGPVDH; partner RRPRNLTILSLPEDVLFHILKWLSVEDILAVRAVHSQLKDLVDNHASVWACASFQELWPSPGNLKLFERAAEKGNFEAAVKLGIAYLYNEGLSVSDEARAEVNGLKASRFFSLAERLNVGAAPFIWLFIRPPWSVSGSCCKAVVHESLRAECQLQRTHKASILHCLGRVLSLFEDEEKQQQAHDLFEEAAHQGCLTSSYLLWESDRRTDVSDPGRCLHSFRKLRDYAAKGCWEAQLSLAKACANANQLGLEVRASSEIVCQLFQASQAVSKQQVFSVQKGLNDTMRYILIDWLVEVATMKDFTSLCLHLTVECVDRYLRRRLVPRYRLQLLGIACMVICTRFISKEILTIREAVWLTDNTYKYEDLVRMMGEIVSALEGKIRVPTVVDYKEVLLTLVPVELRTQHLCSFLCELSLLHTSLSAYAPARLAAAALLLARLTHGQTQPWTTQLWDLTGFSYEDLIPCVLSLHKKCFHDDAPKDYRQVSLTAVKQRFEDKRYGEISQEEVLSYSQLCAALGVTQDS
TSACRSAFGPVDH [L7A]: -0.183
TSACKSLFGPVDH [R5K]: 2.73
TAACRSLFGPVDH [S2A]: 5.71
TSAARSLFGPVDH [C4A]: 4.02
TSACRSLFGAVDH [P10A]: 5.14
ASACRSLFGPVDH [T1A]: 6.26
TSACASLFGPVDH [R5A]: -0.749

Series 5 — technique: competition protein-binding microarray; form: double-stranded DNA, one strand shown; matrix: in vitro; tested at: 2 µM; with: Pho4 competitor, 0.05 µM; reading: higher = stronger binding; quantity: fluorescence intensity; shared flanks, not repeated: … GTCTTGATTCGCTTGACGCTGCTG
Target: Centromere-binding protein 1, full length, His-tagged (CBF1, Saccharomyces cerevisiae, UniProt P17106, residues 1-351)
Sequence of UniProt P17106 (whole entry, looked up): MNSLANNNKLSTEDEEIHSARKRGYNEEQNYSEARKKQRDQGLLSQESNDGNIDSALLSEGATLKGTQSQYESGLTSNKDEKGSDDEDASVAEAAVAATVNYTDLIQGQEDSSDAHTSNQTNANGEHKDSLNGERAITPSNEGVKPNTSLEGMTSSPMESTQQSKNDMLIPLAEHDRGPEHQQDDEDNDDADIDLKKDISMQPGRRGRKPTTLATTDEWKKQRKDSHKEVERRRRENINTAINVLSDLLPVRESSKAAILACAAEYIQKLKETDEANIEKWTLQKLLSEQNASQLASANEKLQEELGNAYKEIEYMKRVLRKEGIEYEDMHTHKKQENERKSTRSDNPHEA
Notes: whole 60-bp probe, lowest competitor level
AAATTACTAAGTTTTCACGTGGCTTACCCCGTATGA: 967 a.u.
CTTCTGTAAATTTGGAAGGTGGGTGGACGCGCCCCG: 72.7 a.u.
CGTCCTAGCGATTGACCAGTGGGTGCCATGAGGAAG: 68.9 a.u.
CGTCCTAGTGATTGTCACGTCACTTCCATGAGGAAG: 130 a.u.
TCTTATTTAATTCGTCACAGACGGTAACGCAGCGCC: 89 a.u.
AAATTACTAAGTTGATGAGTGGGTGACGCCGTATGA: 71.6 a.u.
CGGGGTTAAGTTTTTCACGTGGAGTGCTTGCAGCAG: 374 a.u.
AAGAACATTGATAGTCCCGTGACGGCCCTAAGTGCG: 1300 a.u.
CTGCCTTTATTTATTACCGTGCCAGACAAAGGGGCT: 79.3 a.u.
AAAAACTCCAAGGAACGCGTGTCGGCCGTAATCGTT: 62.8 a.u.
CATACCCAACCTTGGCAGGTGGGTGAAGATATTTGT: 73.1 a.u.
CTAACGAAGGTTTGAAAGGTGGGTGACAAGCCAAGT: 63.2 a.u.
GCCAAGGACCATTACCCCGTGAAGAGATTCTATTGG: 92.5 a.u.
CGGGGTTAAGTTTGGAGAGTGGGTGGCTTGCAGCAG: 70.1 a.u.
CGTCCTAGTGATTTACACGTGTTTTCCATGAGGAAG: 1340 a.u.

Series 6 — technique: protein-binding microarray; form: double-stranded DNA, one strand shown; matrix: in vitro; tested at: 940 nM top; notes: 60-bp whole probe; with: salmon DNA 0.4 mg/ml; baseline: random background probes; reading: higher = stronger binding; quantity: fitted relative affinity; shared flanks, not repeated: GCCTAGCAC … GTCTTGATTCGCTTGACGCTGCTG
Target: Interferon regulatory factor 5, full length, phosphomimetic (IRF5, Homo sapiens, UniProt Q13568-2, residues 1-514, S451D/S453D/S456D/S462D)
TCAGCTCTTGTTTTCACACTGTGCTAG: 0.822 z-score
TTAGGTATCGGATATCGGTTAGTGCTA: 4.94 z-score
TTTGATTTCAGTATCGATTAGTGCTAG: 6.24 z-score
GACGATCTCAGTATCGAGATGTGCTAG: 1.94 z-score
TTTAGATTTTTTTTCCTAATGTGCTAG: 0.8 z-score
TCATATTAAATTTTCACACTGTGCTAG: 0.763 z-score
TATCCTTCCCCTCTAGGTTCGTGCTAG: 0.605 z-score
TCACCACTCCAGTTCTGACTGTGCTAG: 0.0785 z-score
GACGGTATCCCTCTCCTGACGTGCTAG: 0.154 z-score
TTAGGATTGCTTTTCCTTTAGTGCTAG: -0.292 z-score
TTAGAACTGAGTATCGATTGGTGCTAG: 4.31 z-score
GACGATTTCGGGAATGGAGACGTGCTA: 0.0921 z-score
TTAGATATCAGTATGGATTAGTGCTAG: -0.192 z-score
GACGAACTAGGGTATCGAGACGTGCTA: 0.101 z-score
TTAGTTTTCCTTTTCCTTTAGTGCTAG: 2.67 z-score

Series 7 — technique: DHFR PCA, deep sequencing; matrix: yeast; with: (+)-ABA 0.0091 µM; baseline: wild-type fitted maximum; reading: higher = stronger binding; quantity: relative binding score
Target: ABI1, truncated, D143A, DHFR fusion (Arabidopsis thaliana)
Notes: methotrexate growth selection, single substitutions
Starting sequence: PYL1, truncated, DHFR fusion (Arabidopsis thaliana); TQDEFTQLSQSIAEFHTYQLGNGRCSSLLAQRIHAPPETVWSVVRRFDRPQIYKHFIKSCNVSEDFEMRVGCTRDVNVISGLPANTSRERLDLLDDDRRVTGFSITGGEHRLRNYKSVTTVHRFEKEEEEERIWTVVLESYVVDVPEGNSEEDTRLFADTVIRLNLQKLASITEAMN
E89V: 0.434%
V121T: -3.38%
D92Y: -5.11%
E109K: -3.87%
V100W: -4.47%
V118Q: -12.5%
R24V: 4.56%
D3L: 22.2%
R90Y: 1.36%
N114V: -0.0781%
T73G: -0.935%
V40W: -3.01%
T154D: -3.19%
T119V: -0.523%
T86F: 26.2%
D144K: -3.04%
R163D: -2.48%
Q51N: -11.5%

For quick reference, copied from above (series 4):
TSACRSAFGPVDH [L7A]: -0.183
TSACKSLFGPVDH [R5K]: 2.73
TAACRSLFGPVDH [S2A]: 5.71
TSAARSLFGPVDH [C4A]: 4.02
TSACRSLFGAVDH [P10A]: 5.14
ASACRSLFGPVDH [T1A]: 6.26
TSACASLFGPVDH [R5A]: -0.749
